Measured values from different studies.
Numbered parts are unrelated; each lists some results of a single study.
Sequence of UniProt Q8WU08 (whole entry, looked up): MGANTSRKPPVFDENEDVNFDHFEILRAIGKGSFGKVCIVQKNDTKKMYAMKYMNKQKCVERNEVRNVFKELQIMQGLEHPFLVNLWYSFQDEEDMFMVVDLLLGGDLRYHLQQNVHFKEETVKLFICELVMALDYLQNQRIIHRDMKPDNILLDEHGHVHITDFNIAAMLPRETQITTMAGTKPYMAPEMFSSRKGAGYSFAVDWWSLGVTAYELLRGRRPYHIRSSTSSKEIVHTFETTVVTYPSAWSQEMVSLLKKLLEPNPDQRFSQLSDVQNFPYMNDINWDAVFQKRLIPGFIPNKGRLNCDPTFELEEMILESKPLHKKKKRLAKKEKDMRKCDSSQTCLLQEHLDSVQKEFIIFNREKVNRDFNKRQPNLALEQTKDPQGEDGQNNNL
Sequence of UniProt Q13131 (whole entry, looked up): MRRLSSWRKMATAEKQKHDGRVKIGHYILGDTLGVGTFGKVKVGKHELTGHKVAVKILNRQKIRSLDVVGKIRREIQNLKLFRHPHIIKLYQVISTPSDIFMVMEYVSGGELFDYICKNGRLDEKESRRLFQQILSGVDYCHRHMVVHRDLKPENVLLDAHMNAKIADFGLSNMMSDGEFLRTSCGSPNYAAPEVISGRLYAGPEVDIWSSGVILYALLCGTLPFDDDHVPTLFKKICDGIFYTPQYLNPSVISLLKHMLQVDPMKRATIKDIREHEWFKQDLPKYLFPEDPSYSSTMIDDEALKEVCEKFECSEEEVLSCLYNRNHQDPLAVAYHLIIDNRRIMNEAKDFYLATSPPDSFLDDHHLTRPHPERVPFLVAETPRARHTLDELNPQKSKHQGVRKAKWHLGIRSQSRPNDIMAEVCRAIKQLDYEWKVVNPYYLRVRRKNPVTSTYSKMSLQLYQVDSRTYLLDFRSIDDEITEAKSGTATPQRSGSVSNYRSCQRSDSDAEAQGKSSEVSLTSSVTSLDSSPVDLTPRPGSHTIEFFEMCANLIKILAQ
Sequence of UniProt Q8N5S9 (whole entry, looked up): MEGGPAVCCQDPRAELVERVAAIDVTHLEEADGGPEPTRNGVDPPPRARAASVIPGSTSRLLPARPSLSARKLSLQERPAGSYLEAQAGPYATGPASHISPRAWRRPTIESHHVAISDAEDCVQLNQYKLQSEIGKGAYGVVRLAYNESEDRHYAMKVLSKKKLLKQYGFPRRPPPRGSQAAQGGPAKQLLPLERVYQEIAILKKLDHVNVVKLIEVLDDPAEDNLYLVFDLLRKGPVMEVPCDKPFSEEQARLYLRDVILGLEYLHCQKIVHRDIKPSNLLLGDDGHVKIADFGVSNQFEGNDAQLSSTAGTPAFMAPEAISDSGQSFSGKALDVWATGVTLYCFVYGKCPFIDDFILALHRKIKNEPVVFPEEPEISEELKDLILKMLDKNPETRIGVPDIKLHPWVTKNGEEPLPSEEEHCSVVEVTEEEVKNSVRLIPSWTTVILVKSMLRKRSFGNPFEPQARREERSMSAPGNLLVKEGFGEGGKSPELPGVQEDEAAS
Sequence of UniProt P11802 (whole entry, looked up): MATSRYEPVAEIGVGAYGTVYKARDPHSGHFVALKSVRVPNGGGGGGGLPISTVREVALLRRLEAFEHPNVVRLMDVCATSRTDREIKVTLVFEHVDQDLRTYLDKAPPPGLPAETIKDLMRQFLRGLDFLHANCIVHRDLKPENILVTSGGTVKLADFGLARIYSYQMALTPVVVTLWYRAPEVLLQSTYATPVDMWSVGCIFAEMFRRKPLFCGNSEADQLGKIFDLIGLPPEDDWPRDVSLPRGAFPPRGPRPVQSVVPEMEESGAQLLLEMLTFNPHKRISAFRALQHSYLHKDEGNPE

Series 1
Target: Interferon regulatory factor 7, full length, phosphomimetic (IRF7, Homo sapiens, UniProt Q92985, residues 1-503, S101K/S471D/S472D/S475D/S476D/S477D/S483D/S484D/S487D)
Method: protein-binding microarray
Molecule type: double-stranded DNA, one strand shown
Matrix: in vitro
Tested at: 250 nM
Setting: 60-bp whole probe
With: salmon DNA 0.4 mg/ml
Reference: random background probes
Direction: higher = stronger binding
Measurement: log fluorescence
Constant ends, left off below: GCCTAGCAC … GTCTTGATTCGCTTGACGCTGCTG
Construct (chain): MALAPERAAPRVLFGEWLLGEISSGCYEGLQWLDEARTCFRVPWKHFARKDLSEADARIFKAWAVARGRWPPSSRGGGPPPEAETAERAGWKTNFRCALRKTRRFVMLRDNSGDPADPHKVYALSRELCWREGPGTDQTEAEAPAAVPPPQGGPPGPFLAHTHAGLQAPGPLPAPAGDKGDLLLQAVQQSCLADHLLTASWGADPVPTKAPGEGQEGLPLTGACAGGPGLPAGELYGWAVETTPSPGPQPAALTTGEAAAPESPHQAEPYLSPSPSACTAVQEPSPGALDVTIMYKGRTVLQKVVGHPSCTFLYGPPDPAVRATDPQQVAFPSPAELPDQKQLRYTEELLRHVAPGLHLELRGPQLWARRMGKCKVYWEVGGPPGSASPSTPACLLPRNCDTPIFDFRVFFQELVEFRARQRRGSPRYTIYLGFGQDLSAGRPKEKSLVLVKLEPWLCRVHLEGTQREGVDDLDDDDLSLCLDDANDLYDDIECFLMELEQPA
CTGCCTTCAGAGCTGTCTGTGTGCTAG: -0.33 z-score
TTAGGTAACGGACTGGGTTAGTGCTAG: -0.0253 z-score
TCATGTTTTGTTTTTCAACTGTGCTAG: 2.5 z-score
GACGGACTGGACTATCGGGATGTGCTA: -0.762 z-score
GACGCTCTCAGTATCGAGACGTGCTAG: 0.112 z-score
GACGCTATCGGGTATCGAGACGTGCTA: -0.332 z-score
CTTGGGCTCTTCTCTGAAGACGTGCTA: -0.732 z-score
TCACTTTCCATTTCTGTTACTGTGCTA: 4.23 z-score

Series 2
Target: Homeodomain-interacting protein kinase 1 (HIPK1, Homo sapiens, UniProt Q86Z02)
Sequence of UniProt Q86Z02 (whole entry, looked up): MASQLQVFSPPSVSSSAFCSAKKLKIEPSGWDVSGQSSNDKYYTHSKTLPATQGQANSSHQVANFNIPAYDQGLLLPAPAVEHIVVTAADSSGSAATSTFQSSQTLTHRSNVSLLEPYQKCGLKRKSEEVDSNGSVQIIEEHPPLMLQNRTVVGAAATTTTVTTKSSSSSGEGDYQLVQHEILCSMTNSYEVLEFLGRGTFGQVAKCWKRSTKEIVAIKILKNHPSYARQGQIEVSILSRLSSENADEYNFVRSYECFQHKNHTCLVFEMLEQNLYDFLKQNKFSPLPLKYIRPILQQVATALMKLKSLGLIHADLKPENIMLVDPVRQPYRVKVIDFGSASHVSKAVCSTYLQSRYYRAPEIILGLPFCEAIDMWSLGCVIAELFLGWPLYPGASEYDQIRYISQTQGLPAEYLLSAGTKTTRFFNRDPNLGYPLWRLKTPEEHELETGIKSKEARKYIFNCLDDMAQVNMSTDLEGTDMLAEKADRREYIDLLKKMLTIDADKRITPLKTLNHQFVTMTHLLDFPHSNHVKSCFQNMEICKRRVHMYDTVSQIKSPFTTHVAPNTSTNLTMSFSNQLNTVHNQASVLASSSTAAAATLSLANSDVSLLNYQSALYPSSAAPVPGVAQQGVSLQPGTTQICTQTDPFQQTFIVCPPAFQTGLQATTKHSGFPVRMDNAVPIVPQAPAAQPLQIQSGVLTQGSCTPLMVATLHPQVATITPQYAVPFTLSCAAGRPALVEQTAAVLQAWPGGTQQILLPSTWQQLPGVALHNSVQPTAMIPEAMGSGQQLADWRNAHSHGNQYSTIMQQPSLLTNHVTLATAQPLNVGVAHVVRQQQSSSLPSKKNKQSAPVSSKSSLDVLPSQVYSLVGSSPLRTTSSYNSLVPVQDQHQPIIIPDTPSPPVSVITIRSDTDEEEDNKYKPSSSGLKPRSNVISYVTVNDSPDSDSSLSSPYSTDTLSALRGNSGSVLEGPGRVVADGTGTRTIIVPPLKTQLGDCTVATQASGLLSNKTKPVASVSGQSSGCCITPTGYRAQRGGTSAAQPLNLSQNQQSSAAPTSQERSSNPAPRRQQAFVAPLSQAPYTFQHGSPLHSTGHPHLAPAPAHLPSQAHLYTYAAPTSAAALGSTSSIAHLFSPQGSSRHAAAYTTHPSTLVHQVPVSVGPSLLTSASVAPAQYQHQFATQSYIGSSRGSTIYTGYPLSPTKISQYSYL
Read-out: enzyme activity
Action: inhibitor
Tested at: 0.5 µM
Reference: control
Measurement: remaining activity
Cc1ccc(Nc2nccc(N(C)c3ccc4c(C)n(C)nc4c3)n2)cc1S(N)(=O)=O: 97.6%
NCCNc1ncc(C(N)=O)c(Nc2cccc(C(F)(F)F)c2)n1: 95.9%
O=S(=O)(c1cccc2cnccc12)N1CCCNCC1: 96.8%
CNC(=O)c1cc(Oc2ccc(NC(=O)Nc3ccc(Cl)c(C(F)(F)F)c3)cc2)ccn1: 99.7%

Series 3
Target: Sal-like protein 4, full length isoform B (SALL4, Homo sapiens, UniProt Q9UJQ4-2, residues 1-616)
Method: universal PBM
Molecule type: double-stranded DNA, one strand shown
Matrix: in vitro
Tested at: not given
Setting: 8-mer, flanks averaged, mean of replicates
Direction: higher = stronger binding
Measurement: E-score
Construct (chain): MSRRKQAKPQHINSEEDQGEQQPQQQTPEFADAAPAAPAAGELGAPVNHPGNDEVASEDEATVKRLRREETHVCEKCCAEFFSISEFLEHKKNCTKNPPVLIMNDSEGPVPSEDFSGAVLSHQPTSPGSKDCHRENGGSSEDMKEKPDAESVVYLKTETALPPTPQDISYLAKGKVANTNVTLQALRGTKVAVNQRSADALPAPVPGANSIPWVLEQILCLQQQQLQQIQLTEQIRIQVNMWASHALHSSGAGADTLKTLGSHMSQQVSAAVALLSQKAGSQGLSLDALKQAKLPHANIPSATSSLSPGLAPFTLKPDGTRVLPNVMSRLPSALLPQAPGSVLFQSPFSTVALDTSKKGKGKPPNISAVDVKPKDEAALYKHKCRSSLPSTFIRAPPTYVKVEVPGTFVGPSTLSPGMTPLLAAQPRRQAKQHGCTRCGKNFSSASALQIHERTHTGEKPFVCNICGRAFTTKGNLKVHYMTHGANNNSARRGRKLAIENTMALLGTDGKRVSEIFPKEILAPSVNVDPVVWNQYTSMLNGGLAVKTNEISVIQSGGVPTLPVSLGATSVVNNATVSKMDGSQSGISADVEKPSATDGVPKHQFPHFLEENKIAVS
CGCAATCA: -0.00567
TACCACCA: 0.0578
CTTGTCGA: 0.0922
ATGGCACA: -0.0299
GTAATGAA: 0.216
CTCCTAAC: 0.00962
CCCGCAGG: -0.42
ACTTTATC: 0.121

Series 4
SMILES: CO[C@@H](C)c1c(Nc2ccc([C@H](N(C)C(=O)C3CCS(=O)(=O)CC3)C(F)(F)F)cc2)cnc2cc(Cl)nn12
Read-out: cell-free assay
Method: competition with immobilised ligand
Tested at: 1 µM
Measurement: remaining binding
Calcium/calmodulin-dependent protein kinase kinase 1 (CAMKK1, Homo sapiens, UniProt Q8N5S9): 80%
Epidermal growth factor receptor (EGFR, Homo sapiens, UniProt P00533, del752-759): 100%
5'-AMP-activated protein kinase catalytic subunit alpha-1 (PRKAA1, Homo sapiens, UniProt Q13131): 99%
Serine/threonine-protein kinase 32A (STK32A, Homo sapiens, UniProt Q8WU08): 100%
Cyclin-dependent kinase 4, with cyclin D3 (CDK4, Homo sapiens, UniProt P11802): 100%

A few entries again (series 3):
GTAATGAA: 0.216
CTCCTAAC: 0.00962
